Experimental data from different studies.
Every numbered part comes from another study and shows a few of its results, in no order. Changes are numbered by the printed parent chain.

Block 1
Target: RING finger protein unkempt homolog, zinc fingers 1-6, GST-SBP tag (UNK, Homo sapiens, UniProt Q9C0B0, residues 30-357)
Chain of UniProt Q9C0B0 (30-357, looked up): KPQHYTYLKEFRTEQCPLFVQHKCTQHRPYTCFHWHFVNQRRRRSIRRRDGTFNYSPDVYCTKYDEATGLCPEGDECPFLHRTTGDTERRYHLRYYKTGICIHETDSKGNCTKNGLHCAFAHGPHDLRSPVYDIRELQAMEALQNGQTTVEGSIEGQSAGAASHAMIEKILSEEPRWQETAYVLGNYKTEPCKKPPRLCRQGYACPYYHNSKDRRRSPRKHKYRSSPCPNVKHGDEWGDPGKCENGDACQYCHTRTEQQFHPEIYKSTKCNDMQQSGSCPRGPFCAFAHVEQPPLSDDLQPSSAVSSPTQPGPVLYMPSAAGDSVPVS
Technique: RNA Bind-n-Seq
Form: RNA
Medium: in vitro
Tested at: not given
Setting: RNA with constant flanks, ends assumed
Reference: input RNA pool
Reading: higher = stronger binding
`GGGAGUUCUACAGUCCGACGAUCGUUAUUGAAAAACUCUUGACCUCUUACGGAUUCAUUCAGUGUUCAGAACGGCAAGCCCGACUUUUCUUCCACUGUUCACAAUAUAAUGGCAACCUCCAAGACUUAAAAGUAGGAGAUGAUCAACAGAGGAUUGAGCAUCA` gave a bound/input enrichment of 0.254 ratio.
The bound/input enrichment of `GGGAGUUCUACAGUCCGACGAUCUACUACUUAUCUGUGUUUCUGGAGCUCUCAGCUGGCUUGCCUGAAACUUCUAAAUAUGAAUAUCGUGCCGAGAUGGUUCACCAGUCCUGUAAUGAUCCUACAAAAAAUAUCAUUCGAGAACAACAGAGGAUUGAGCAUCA` is reported as 0.273 ratio.
With `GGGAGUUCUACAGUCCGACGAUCCUGCCUACCUCAGAGCAUAAAUGCAUACAUUCUAGAGAAGAUGAAGACUUAAUUGAAAAUUCCGCCCAAGAUGAAACAUCUAGGCUGGACCUUGGAUUUGAGGAGUGGGAUGUAGCUGGCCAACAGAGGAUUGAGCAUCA` the bound/input enrichment was 0.217 ratio.
`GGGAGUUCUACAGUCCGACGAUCGUUGCCAGACCGGCCCAUAAAAAGAAAGCUCGAAUGGCGCGGACGCGCUCCGAUUUCUUGACCCGAGGUACUUUUGCCGAAGGGGAGGGGGAUACAGAGGAAGAUGAUUACGAUGACAUUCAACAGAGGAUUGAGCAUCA` gave a bound/input enrichment of 0.15 ratio.
With `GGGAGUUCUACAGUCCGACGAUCAAUGUGUCCAUGCAAAAUGCUGUGAAUGAGCCUGUACAGAAACUAAUGCGGAAAAAGCAAUCCGACGCCGCAGAAUUUAGCAUCUAUUGGGAUGUCGAUUGCACUUUACUGGGGGAUUUGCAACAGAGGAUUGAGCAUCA` the bound/input enrichment was 0.344 ratio.
The bound/input enrichment of `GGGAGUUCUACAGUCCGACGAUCAAGAAAGAGCAUGCAGCUAUCAUUCUUUGGAACACUACAUCUUGGAAACAGGUGCAGAAUUCCGUUUUCCACAGUUUGACAGUCACGCAGAUGGCCUUCUCACCUAAUGAGAAGUUCUUACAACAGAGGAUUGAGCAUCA` is reported as 0.143 ratio.

Block 2
Target: Sal-like protein 4, full length isoform B (SALL4, Homo sapiens, UniProt Q9UJQ4-2, residues 1-616)
Technique: universal PBM
Form: double-stranded DNA, one strand shown
Medium: in vitro
Tested at: not given
Setting: 8-mer, flanks averaged, mean of replicates
Reading: higher = stronger binding
For `TCTTACAA`, the E-score was 0.0987.
`AAGTTATC` has an E-score of 0.139.
The E-score of `GTGACAGA` is reported as -0.0815.
For `GTTTCTCA`, the E-score was -0.00757.
The E-score of `AACTTGGT` is reported as 0.189.
`ACGGTGCA` has an E-score of -0.0336.
`CACCACGC` has an E-score of -0.182.
For `GAGTGGCA`, the E-score was -0.185.
The E-score of `TCAGCTAA` is reported as 0.0638.

Block 3
Target: CCND1, cyclin fold, Cln2 fusion (human)
Technique: yeast growth competition, sequencing
Medium: yeast
Setting: strong parent motif
Reference: not given
Reading: higher = stronger binding
Starting sequence: RBL2 docking peptide (human); STTRRRLFVENDS; partner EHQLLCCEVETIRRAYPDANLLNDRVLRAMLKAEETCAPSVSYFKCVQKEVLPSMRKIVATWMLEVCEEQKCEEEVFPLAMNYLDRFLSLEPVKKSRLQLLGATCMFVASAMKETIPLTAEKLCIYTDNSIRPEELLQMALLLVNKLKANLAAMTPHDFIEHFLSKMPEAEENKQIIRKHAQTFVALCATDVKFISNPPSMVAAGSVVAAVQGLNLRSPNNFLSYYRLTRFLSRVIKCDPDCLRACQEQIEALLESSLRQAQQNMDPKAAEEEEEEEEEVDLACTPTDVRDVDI
For `STTRNRLFVENDS [R5N]`, “normalised enrichment score” read -0.055.
Under “normalised enrichment score”, `STTRRRNFVENDS [L7N]` is recorded as -0.381.
`STTRRRLFVENDK [S13K]`: “normalised enrichment score” 0.511.
`STTRRRLFKENDS [V9K]` — result for “normalised enrichment score”: 0.529.
`STTRRRLFVENQS [D12Q]`: “normalised enrichment score” 0.551.
`STTRRRLFVGNDS [E10G]`: “normalised enrichment score” -0.0223.

Single results of other studies
With `PhoQ, residues 284 288 289 292 302 303 QWQEDG` the fold induction was 7.58 (PhoP, residues 12 14 15 18 19 NMSSL (Escherichia coli, UniProt P23836); Sort-seq, measured: YFP reporter; E. coli; PhoQ-PhoP variant library, added: 10 µM Mg2+; reference: high Mg2+ state, higher = stronger signaling).

A few entries again (block 2):
`AAGTTATC` has an E-score of 0.139.
The E-score of `GTGACAGA` is reported as -0.0815.
For `GTTTCTCA`, the E-score was -0.00757.
